# Measured values pooled from the literature.
# A part holds a random share of what one study measured.

# Sample 1
# Target: Replicase polyprotein 1ab, main protease (rep, Severe acute respiratory syndrome coronavirus 2, UniProt P0DTD1)
# Effect on: enzyme activity
# Mode: inhibitor
# Concentration: 20 µM
# Notes: hit confirmation, no DTT
Compound,inhibition [%]
CN1CC[C@@]2(C)c3cc(O)ccc3N(C)[C@@H]12,75.5
C[C@H](NC(=O)/C(C#N)=C/c1cccc(Br)n1)c1ccccc1,92.3
c1ccc2sc(SN3CCOCC3)nc2c1,99.8
Oc1c(I)cc(I)c(O)c1I,98.9
CNC(=O)ON(C(C)=O)C(=O)NC,94.7

# Sample 2
# Target: Histone acetyltransferase KAT6A, winged helix 1, GST fusion (KAT6A, Homo sapiens, UniProt Q92794, residues 1-85)
# Method: protein binding microarray
# Molecule type: double-stranded DNA, one strand shown
# Sample: in vitro
# Concentration: not given
# Notes: 8-mer, flanks averaged, mean of 2 arrays, mostly near background
# Reference: not given
# Direction: higher = stronger binding
# Residues (chain): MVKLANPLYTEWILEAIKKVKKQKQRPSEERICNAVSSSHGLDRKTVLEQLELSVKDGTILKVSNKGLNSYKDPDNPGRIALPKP
Strand,E-score
CTCCCAAC,-0.0713
GTCTGGCA,-0.159
AAGCCCCC,-0.0147
AGTAAGTC,0.0691
TCCCACCA,-0.146
CTAGAGCA,-0.0309
AATCCATG,-0.194
GAGATCGA,-0.0769

# Sample 3
# Target: Replicase polyprotein 1ab, nsp13 helicase (rep, Severe acute respiratory syndrome coronavirus 2, UniProt P0DTD1)
# Mode: inhibitor
# Concentration: 20 µM
SMILES,inhibition
CCOC1O[C@H]([C@@H](COCc2ccccc2)OCc2ccccc2)[C@H](OCc2ccccc2)[C@H]1O (stereo partly shown),3.79%
NCc1ccc(S(N)(=O)=O)cc1,-1.64%
NCc1c[nH]c(=S)n1[C@H]1CCc2c(F)cc(F)cc2C1,1.98%
CCCCc1nc(Cl)c(C(=O)O)n1Cc1ccc(-c2ccccc2-c2nn[nH]n2)cc1,0.03%
C[C@]12CC[C@@H]3c4ccc(OS(=O)(=O)O)cc4CC[C@H]3[C@@H]1CCC2=O,10.7%
C[C@]12COC(=O)C[C@@H]1CC[C@@H]1[C@@H]2CC[C@@]2(C)[C@H]1CC[C@]2(C)O,8.05%
c1ccc(-c2ccc(C(c3ccccc3)n3ccnc3)cc2)cc1 (stereo not shown),0.33%
COc1ccccc1N1CCN(CCN2C(=O)c3ccccc3C(C)(C)C2=O)CC1,0.42%
C[C@]12CC[C@H](O)C[C@H]1CC[C@@H]1[C@@H]2CC[C@]2(C)[C@@H](C3=CC(=O)OC3)CC[C@]12O,0.6%
C/C=C1\[C@H]2C=C(C)C[C@]1(N)c1ccc(=O)[nH]c1C2,4.16%
NC(=O)c1ccc(I)c([N+](=O)[O-])c1,5.81%
O=C(Nc1cccc(Cl)c1)c1ccccn1,6.72%
COc1cc(C(C)=O)ccc1OCCCN1CCC(c2noc3cc(F)ccc23)CC1,9.63%
CC(C)c1ccc(NC(=O)Cn2cnc3c2c(=O)n(C)c(=O)n3C)cc1,5.47%
CN1C(=O)C[C@@H](C(=O)N[C@@H](Cc2c[nH]cn2)C(=O)N2CCC[C@H]2C(N)=O)NC1=O,-1.71%
CCOC(=O)c1ccccc1OC(N)=O,8.69%
CC[C@]1(O)C[C@@H]2CN(CCc3c([nH]c4ccccc34)[C@@](C(=O)OC)(c3cc4c(cc3OC)N(C)[C@H]3[C@@](O)(C(N)=O)[C@H](O)[C@]5(CC)C=CCN6CC[C@]43[C@@H]65)C2)C1,0.09%
NC(=O)N1c2ccccc2CC(O)c2ccccc21 (stereo not shown),1.99%
O=C(Cc1ccc(-c2ccccc2)cc1)Nc1ccccn1,4.48%
O=C(Nc1cc(C(F)(F)F)cc(C(F)(F)F)c1)Nc1c(Br)cc(Br)cc1-c1nn[nH]n1,4.66%
CC(C)(C(=O)O)c1ccc(C(=O)CCCN2CCC(OC(c3ccccc3)c3ccccc3)CC2)cc1,-1.81%
CCNC(=O)[C@@H]1CCCN1C(=O)[C@H](CCCNC(=N)N)NC(=O)[C@H](CC(C)C)NC(=O)[C@@H](CC(C)C)NC(=O)[C@H](Cc1ccc(O)cc1)NC(=O)[C@H](CO)NC(=O)[C@H](Cc1c[nH]c2ccccc12)NC(=O)[C@H](Cc1c[nH]cn1)NC(=O)[C@@H]1CCC(=O)N1,2.18%
CO/N=C(\N)c1ccc(-c2ccc(-c3ccc(/C(N)=N/OC)cc3)o2)cc1,5.23%
C=CC(C)(O)CCC=C(C)C (stereo not shown),0.38%
c1ccc(COCCCc2c[nH]cn2)cc1,1.65%

# Sample 4
# Target: Phosphate system positive regulatory protein PHO4, full length, GST-tagged (PHO4, Saccharomyces cerevisiae, UniProt P07270, residues 1-312)
# Method: competition protein-binding microarray
# Molecule type: double-stranded DNA, one strand shown
# Sample: in vitro
# Concentration: 2 µM
# Notes: whole 60-bp probe, lowest competitor level
# Together with: Cbf1 competitor, 0.05 µM
# Direction: higher = stronger binding
# Construct (chain): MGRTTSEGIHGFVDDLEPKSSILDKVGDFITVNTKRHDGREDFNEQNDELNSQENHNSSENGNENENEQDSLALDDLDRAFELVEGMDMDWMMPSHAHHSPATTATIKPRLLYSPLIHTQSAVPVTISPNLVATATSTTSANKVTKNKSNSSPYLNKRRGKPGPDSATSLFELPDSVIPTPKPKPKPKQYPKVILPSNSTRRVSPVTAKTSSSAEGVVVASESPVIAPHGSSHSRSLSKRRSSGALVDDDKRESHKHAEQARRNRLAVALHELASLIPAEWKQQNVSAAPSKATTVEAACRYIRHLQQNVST
Strand,fluorescence intensity
CATACCCAACCTTTTCACGTGCTCTAAGATATTTGTGTCTTGATTCGCTTGACGCTGCTG,19400 a.u.
AACCGTAGGATGTCCCACGTTCGACTTGAACTCGTTGTCTTGATTCGCTTGACGCTGCTG,10700 a.u.
GTTGAAGTCAAGTTGAACGTGATGGGATACTGATTTGTCTTGATTCGCTTGACGCTGCTG,8250 a.u.
GTCTTGTCTCATTGCTTTGTGGGTGTCCCCACTTCAGTCTTGATTCGCTTGACGCTGCTG,4330 a.u.

# Sample 5
# Target: Fragile X messenger ribonucleoprotein 1, C-terminal low-complexity region (Fmr1, Mus musculus, UniProt P35922)
# Method: RNA Bind-n-Seq
# Molecule type: RNA
# Sample: in vitro
# Concentration: 200 nM
# Notes: whole 134-nt RNA, ends assumed
# Together with: 150 mM LiCl
# Reference: input library
# Direction: higher = stronger binding
# All molecules: 7-deaza-guanosine replaces G
Strand,log2 enrichment
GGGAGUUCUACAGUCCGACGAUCUGGGAGGUGGAUUUUGUUUAUUUUUUUAGCUCAUCUCCAGGGGUGGGAAUUUUUUUUUAAUAUGUGUCAUGAAUAAAGUUGUUUUUGAAAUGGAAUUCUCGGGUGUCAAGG,-0.0716
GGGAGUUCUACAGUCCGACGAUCUGGCCCUGGUGGCAUGCGGGGAGGAAGAGGUGGCCUCAUGGAUUGUGGUGGUCCCGGUGGAAUGUUCAGAGGUGGCCGUGGUGGAGACAGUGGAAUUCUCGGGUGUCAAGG,1.01
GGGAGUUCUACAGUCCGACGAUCUGGGAGGUGGAUUUUGUUUAUUUUUUUAGCUCAUUUCCAGGGGUGGGAAUUUUUCUUUAAUAUGUGUCAUGAAUAAAGUUGUUUUUGAAAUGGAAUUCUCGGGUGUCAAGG,-0.655
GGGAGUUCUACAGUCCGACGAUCUCAAGUCCUGUGCUACACAUCGUAUGUACCGAAUCGGGGAAAGGGAAAGGAAAGGAAAGUAUUAUGUUACGCCGUUCGGAUCUGCACUUCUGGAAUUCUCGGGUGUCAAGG,-1.15
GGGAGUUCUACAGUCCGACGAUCUGGCAGGAAAGAGUUCCUAGAGAGAGAAGACAAAGACAGUCUGUGUUGCAAAAGAAGCCCAAGGCUGAAGAUUUAAGAACUGAAUGUGCAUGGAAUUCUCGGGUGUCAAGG,-1.92
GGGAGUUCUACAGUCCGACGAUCUCAAGUCCUGUGCUACACAUCGUAUGUACCGAAUCGGUUUGGUUUGGUUUGGGGAAAGUAUUAUGUUACGCCGUUCGGAUCUGCACUUCCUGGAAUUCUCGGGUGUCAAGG,-1.24
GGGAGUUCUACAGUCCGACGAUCAGUCCUGUGCUACACAUCGUAUGUACCGAAUCGGGUUUUUGGGUUUGGGUUUUUGGGAAAGUAUUAUGUUACGCCGUUCGGAUCUGCACUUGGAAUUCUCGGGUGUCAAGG,-1.9

# Sample 6
# Cell line: HEK-293T
# Effect on: pseudovirus infection
# Method: FDA-approved drug library screen
# Organism: VSV pseudotyped with SARS-CoV-2 spike
# Concentration: 10 µM
# Time: 16 h
# Reference: vehicle-treated
Structure (SMILES),GFP-positive cells [%]
CC1CCC(C(C)C)C(O)C1 (racemic),84.2
Cc1cn[nH]c1,97.3
C=CC1=C(C(=O)O)N2C(=O)[C@@H](NC(=O)/C(=N\O)c3csc(N)n3)[C@H]2SC1,94.4

# Some of these lines once more (sample 5):
Strand,log2 enrichment
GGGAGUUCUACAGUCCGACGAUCUCAAGUCCUGUGCUACACAUCGUAUGUACCGAAUCGGGGAAAGGGAAAGGAAAGGAAAGUAUUAUGUUACGCCGUUCGGAUCUGCACUUCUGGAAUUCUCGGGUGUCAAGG,-1.15
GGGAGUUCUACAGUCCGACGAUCUCAAGUCCUGUGCUACACAUCGUAUGUACCGAAUCGGUUUGGUUUGGUUUGGGGAAAGUAUUAUGUUACGCCGUUCGGAUCUGCACUUCCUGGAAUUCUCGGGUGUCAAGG,-1.24
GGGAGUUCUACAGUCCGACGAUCUGGCAGGAAAGAGUUCCUAGAGAGAGAAGACAAAGACAGUCUGUGUUGCAAAAGAAGCCCAAGGCUGAAGAUUUAAGAACUGAAUGUGCAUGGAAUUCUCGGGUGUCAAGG,-1.92
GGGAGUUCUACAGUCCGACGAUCAGUCCUGUGCUACACAUCGUAUGUACCGAAUCGGGUUUUUGGGUUUGGGUUUUUGGGAAAGUAUUAUGUUACGCCGUUCGGAUCUGCACUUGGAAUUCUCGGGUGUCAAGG,-1.9
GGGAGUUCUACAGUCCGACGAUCUGGGAGGUGGAUUUUGUUUAUUUUUUUAGCUCAUUUCCAGGGGUGGGAAUUUUUCUUUAAUAUGUGUCAUGAAUAAAGUUGUUUUUGAAAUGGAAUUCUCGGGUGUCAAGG,-0.655
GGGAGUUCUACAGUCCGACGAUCUGGGAGGUGGAUUUUGUUUAUUUUUUUAGCUCAUCUCCAGGGGUGGGAAUUUUUUUUUAAUAUGUGUCAUGAAUAAAGUUGUUUUUGAAAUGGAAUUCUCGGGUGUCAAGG,-0.0716
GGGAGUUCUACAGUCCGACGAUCUGGCCCUGGUGGCAUGCGGGGAGGAAGAGGUGGCCUCAUGGAUUGUGGUGGUCCCGGUGGAAUGUUCAGAGGUGGCCGUGGUGGAGACAGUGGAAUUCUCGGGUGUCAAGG,1.01
